Measurements from different studies.
Parts stem from different laboratories: compare values within a part only.
UniProt P50406, sequence (whole entry, looked up): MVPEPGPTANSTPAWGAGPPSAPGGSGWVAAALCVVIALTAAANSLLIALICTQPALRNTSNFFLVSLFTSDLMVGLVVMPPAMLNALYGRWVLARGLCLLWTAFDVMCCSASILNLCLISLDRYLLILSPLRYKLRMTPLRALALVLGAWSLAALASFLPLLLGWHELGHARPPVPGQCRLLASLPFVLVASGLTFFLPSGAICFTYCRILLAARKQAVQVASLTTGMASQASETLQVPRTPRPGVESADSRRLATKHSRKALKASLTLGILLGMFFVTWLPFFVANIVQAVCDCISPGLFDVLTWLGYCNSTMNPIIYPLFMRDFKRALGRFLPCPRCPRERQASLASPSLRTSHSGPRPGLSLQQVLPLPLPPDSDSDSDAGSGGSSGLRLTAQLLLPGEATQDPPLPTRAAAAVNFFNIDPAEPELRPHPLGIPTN
UniProt P49840, sequence (whole entry, looked up): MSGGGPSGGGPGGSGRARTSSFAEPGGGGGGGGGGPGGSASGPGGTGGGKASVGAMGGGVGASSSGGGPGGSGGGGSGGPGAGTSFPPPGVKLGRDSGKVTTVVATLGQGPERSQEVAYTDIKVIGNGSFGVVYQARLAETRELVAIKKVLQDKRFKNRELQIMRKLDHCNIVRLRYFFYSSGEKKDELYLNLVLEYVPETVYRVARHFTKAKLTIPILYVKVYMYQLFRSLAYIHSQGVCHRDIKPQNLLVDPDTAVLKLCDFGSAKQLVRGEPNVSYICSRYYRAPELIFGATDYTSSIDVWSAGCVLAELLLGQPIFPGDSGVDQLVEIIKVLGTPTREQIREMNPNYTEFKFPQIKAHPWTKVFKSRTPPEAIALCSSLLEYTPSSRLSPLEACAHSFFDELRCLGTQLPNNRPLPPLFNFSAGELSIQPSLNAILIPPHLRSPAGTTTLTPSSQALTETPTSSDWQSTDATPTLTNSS

Sample 1
Target: Histone acetyltransferase KAT6A, both winged helices, GST fusion (KAT6A, Homo sapiens, UniProt Q92794, residues 1-181)
Method: protein binding microarray
Molecule type: double-stranded DNA, one strand shown
Medium: in vitro
Concentration: not given
Notes: 8-mer, flanks averaged, mean of 2 arrays, mostly near background
Reference: not given
Direction: higher = stronger binding
Target sequence (chain): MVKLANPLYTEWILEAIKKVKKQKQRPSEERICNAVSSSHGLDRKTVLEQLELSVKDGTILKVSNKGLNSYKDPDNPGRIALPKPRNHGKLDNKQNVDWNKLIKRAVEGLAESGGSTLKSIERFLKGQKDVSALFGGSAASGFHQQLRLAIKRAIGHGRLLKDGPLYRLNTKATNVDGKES
Oligonucleotide	E-score
GCCTGGCA	-0.158
TACCGGAA	0.12
GGTAACAA	-0.0756
AGTTTGAC	0.0279
GGAAACAC	0.114
GCGTTCAC	0.111
CGTAAGTC	0.0337
ACCCAGGT	-0.0835

Sample 2
Target: Tyrosine-protein kinase JAK2 (JAK2, Homo sapiens, UniProt O60674)
UniProt O60674, sequence (whole entry, looked up): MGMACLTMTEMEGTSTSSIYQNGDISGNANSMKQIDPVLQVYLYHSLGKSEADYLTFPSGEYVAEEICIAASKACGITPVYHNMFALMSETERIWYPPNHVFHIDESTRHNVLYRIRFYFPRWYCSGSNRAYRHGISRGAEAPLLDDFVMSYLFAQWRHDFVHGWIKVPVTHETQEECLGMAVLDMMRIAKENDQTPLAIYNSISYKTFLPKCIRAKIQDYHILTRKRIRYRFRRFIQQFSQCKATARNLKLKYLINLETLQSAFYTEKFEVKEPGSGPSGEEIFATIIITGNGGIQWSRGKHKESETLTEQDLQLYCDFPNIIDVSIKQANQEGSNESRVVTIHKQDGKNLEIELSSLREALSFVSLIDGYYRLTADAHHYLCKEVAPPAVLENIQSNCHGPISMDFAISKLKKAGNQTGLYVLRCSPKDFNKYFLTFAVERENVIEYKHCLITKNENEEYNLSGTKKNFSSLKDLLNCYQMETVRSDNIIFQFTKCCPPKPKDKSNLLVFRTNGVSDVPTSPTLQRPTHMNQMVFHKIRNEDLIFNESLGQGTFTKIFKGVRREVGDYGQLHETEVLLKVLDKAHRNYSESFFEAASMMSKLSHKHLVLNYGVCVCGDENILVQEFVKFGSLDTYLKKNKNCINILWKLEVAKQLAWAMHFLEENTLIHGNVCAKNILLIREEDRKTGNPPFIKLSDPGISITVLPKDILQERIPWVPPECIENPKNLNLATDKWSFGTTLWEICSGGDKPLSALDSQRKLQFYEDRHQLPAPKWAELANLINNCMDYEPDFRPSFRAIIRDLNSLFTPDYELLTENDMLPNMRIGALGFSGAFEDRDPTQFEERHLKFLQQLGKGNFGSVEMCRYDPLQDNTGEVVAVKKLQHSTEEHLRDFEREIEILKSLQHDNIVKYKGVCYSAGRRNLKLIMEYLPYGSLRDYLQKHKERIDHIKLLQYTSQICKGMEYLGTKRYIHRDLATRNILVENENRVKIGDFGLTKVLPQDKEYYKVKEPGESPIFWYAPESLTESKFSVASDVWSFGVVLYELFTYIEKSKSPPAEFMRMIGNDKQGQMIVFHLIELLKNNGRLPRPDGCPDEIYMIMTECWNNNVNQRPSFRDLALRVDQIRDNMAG
Read-out: enzyme activity
Action: inhibitor
Concentration: 0.5 µM
Reference: control
Compound	remaining activity [%]
COc1cccc(-c2cc(=O)c3ccccc3o2)c1N	104
c1ccc(-c2n[nH]c3c2oc2ccccc23)cc1	89.8
COc1ccc(COc2ccc(Cc3cnc(N)nc3N)cc2OC)cc1	89.2
N#Cc1cnc2cnc(NCc3cccnc3)cc2c1Nc1ccc(F)c(Cl)c1	99
Cc1ccc(S(=O)(=O)/C=C/C#N)cc1	99.5
O=C1Nc2ccc(Br)cc2/C1=C/c1cc2c([nH]1)CCCC2	95.2
O=C(c1cc2cc(O)ccc2[nH]1)c1cc2cc(O)ccc2[nH]1	95.6
CCCCc1c(-c2ccc(OC)cc2)[nH]c2nccnc12	77.9
O=C1NC(=O)c2c1c1c3ccccc3[nH]c1n1cncc21	117
CN1CCN(c2ccc3nc(-c4c(N)c5c(F)cccc5[nH]c4=O)[nH]c3c2)CC1	92

Single results of other studies
Structure (SMILES)	tested on	read-out	method	concentration	endpoint	value
C[C@@H](NC(=O)Nc1cc2[nH]ncc2c(CO)n1)c1ccccc1	GSK3A (Homo sapiens, UniProt P49840)	target engagement in cells	BRET		EC50	13 µM
CC(C)(C)c1cnc(CSc2cnc(NC(=O)C3CCN(CCCCSc4cccc5c4C(=O)N(C4CCC(=O)NC4=O)C5=O)CC3)s2)o1 (stereo not drawn)	HH		CCK-8	200 nM	viability	1.44%
CC(C)(C)OC(=O)N1CCCC1CNC1CCC(c2cc(F)ccc2F)(S(=O)(=O)c2ccc(Cl)cc2)CC1 (stereo not drawn)	HTR6 (Homo sapiens, UniProt P50406)	cell-free assay		10 µM	inhibition	37.1%

Excerpt of the above (sample 2):
Compound	remaining activity [%]
COc1cccc(-c2cc(=O)c3ccccc3o2)c1N	104
c1ccc(-c2n[nH]c3c2oc2ccccc23)cc1	89.8
